# Measurements pooled from the literature.
# Lines come from different studies, so protocols differ. Numbers after ± are the reported error.
# USP51: Ubiquitin carboxyl-terminal hydrolase 51 (USP51, Homo sapiens, UniProt Q70EK9)
# UniProt Q70EK9, sequence (whole entry, looked up): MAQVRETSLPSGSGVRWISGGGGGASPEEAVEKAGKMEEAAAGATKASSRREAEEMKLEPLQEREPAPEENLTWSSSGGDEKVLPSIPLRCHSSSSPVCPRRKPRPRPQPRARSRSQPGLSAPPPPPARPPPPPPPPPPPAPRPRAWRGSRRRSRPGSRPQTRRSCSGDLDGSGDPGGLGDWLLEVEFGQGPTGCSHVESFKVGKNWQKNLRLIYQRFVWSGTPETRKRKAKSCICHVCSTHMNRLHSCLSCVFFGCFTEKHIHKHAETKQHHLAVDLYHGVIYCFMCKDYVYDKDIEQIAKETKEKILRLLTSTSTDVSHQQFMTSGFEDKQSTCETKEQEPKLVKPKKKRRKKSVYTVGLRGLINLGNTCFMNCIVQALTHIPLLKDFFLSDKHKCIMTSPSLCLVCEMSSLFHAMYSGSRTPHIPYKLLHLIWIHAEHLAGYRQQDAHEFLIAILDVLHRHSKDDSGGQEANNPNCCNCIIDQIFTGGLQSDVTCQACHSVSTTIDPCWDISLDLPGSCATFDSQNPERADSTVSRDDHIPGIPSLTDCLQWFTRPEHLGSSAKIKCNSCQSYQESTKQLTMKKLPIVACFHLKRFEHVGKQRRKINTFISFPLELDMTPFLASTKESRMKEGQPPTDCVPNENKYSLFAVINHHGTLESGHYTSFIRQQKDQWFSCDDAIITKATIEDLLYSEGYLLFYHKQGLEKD
# Adhesin FmlH lectin domain: Adhesin FmlH, lectin domain (Escherichia coli, UniProt Q1RBS0)
# PTGS1: Prostaglandin G/H synthase 1 (PTGS1, Ovis aries, UniProt P05979)
# UniProt P05979, sequence (whole entry, looked up): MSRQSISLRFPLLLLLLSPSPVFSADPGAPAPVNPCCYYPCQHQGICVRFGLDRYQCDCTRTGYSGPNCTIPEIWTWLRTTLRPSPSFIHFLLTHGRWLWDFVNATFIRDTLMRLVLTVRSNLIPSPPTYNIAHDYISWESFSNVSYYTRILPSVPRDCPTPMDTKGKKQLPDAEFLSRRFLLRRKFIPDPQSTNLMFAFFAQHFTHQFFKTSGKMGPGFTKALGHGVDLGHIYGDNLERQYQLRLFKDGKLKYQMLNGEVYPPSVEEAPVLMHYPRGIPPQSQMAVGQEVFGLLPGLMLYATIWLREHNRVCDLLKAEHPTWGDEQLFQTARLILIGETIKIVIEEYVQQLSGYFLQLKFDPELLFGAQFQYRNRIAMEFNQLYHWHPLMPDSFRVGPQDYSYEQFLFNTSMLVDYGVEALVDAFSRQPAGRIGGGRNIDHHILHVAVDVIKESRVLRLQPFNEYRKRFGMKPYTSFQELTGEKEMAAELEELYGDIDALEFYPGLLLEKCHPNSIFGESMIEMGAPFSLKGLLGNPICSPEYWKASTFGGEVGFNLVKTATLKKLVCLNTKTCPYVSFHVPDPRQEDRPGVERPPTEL
# CAPN1: Calpain-1 catalytic subunit (CAPN1, Homo sapiens, UniProt P07384)
# UniProt P07384, sequence (whole entry, looked up): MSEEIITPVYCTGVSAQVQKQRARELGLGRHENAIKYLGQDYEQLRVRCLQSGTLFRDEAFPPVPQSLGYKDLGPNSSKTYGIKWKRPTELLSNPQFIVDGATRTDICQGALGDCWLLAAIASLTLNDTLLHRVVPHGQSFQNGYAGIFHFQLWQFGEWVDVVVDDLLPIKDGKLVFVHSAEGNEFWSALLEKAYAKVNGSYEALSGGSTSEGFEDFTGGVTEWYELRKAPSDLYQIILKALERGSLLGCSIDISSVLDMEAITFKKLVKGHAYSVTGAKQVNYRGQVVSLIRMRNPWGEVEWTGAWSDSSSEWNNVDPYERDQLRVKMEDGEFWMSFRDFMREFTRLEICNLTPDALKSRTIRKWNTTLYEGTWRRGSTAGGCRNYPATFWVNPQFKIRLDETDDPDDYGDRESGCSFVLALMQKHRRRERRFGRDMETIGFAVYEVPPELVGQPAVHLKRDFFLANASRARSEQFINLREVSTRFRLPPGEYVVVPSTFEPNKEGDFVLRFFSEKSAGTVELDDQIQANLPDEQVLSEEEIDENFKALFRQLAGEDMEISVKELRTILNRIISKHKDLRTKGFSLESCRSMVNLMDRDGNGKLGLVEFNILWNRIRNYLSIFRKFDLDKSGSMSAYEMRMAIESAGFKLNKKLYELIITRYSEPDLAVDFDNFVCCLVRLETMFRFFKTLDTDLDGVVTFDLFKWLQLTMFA
# HTR5A: 5-hydroxytryptamine receptor 5A (HTR5A, Homo sapiens, UniProt P47898)
# UniProt P47898, sequence (whole entry, looked up): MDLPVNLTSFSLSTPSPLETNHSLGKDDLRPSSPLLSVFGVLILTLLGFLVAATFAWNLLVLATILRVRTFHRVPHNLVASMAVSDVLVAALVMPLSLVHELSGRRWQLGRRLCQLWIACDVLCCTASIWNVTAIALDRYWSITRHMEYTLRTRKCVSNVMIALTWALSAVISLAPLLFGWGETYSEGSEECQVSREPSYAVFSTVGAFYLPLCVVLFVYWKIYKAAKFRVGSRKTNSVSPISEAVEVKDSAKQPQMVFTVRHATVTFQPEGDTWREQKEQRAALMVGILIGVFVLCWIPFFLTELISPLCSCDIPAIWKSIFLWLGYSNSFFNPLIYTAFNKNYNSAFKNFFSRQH
# UniProt O95180, sequence (whole entry, looked up): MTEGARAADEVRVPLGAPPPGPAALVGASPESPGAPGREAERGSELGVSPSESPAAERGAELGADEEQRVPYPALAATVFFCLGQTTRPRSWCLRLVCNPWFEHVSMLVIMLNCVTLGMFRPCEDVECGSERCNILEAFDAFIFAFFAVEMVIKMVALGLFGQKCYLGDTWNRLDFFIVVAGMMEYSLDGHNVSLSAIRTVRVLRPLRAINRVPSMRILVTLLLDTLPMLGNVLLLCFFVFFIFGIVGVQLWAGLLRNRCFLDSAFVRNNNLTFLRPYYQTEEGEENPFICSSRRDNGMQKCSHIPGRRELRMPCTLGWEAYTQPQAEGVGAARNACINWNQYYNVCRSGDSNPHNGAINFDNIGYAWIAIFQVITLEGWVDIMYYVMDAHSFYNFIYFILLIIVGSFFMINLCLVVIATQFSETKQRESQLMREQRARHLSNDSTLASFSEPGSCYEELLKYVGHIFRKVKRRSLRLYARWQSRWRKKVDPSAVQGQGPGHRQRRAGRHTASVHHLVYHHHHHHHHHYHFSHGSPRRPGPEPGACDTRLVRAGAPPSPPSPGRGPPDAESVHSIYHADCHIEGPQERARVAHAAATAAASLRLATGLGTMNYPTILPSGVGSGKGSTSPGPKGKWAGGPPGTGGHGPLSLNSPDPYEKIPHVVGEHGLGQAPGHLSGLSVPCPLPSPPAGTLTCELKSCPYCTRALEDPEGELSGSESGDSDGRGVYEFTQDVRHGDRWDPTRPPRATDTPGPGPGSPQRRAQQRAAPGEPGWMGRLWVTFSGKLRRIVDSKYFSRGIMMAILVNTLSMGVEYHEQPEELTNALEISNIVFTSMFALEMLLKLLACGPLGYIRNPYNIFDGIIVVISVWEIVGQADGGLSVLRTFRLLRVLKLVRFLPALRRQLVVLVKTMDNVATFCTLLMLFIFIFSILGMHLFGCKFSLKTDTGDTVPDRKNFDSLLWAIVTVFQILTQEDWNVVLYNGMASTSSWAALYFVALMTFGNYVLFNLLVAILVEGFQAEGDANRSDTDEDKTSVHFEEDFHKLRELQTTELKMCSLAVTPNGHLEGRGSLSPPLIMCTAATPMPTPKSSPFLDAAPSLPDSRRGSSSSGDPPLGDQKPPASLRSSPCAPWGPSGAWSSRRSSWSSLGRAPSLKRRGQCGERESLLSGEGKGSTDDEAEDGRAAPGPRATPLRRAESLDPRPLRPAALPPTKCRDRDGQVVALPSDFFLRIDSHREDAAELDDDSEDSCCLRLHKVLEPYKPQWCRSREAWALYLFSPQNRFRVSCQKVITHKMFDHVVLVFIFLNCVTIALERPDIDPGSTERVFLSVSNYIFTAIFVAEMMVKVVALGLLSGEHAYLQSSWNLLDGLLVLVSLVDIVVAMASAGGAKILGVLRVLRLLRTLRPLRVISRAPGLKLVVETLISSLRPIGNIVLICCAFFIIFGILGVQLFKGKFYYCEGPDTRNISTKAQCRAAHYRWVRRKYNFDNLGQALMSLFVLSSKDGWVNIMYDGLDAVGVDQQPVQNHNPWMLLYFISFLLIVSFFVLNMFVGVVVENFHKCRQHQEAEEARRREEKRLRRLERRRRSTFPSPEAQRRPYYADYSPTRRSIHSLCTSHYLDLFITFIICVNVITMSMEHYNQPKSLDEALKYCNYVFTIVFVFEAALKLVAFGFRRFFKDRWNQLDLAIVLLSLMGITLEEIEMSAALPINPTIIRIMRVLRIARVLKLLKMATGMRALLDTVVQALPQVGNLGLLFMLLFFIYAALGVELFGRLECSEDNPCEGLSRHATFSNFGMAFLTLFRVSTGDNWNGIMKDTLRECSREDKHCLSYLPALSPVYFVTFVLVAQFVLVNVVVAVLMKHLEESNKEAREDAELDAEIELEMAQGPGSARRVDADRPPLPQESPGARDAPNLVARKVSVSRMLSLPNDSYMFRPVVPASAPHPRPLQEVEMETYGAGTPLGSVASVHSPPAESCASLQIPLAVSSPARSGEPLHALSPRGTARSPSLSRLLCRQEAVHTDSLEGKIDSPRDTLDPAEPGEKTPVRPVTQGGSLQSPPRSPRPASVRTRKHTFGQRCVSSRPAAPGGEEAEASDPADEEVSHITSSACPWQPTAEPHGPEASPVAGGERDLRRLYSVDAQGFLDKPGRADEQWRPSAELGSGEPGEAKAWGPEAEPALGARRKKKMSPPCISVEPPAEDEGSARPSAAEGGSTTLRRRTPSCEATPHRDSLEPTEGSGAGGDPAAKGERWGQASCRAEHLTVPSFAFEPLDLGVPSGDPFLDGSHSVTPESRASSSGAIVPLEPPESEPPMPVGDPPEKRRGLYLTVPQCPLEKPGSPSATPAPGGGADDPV
# UniProt P46663, sequence (whole entry, looked up): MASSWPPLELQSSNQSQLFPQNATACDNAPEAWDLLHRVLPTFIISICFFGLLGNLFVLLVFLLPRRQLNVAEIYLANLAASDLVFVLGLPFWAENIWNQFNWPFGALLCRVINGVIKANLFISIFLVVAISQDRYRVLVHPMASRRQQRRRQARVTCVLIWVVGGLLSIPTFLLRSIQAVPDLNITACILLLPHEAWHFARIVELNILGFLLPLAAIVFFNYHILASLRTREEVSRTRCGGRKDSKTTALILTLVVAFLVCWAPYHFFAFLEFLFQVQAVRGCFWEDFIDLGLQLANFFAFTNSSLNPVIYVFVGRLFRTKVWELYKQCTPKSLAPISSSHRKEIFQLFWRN
SMILES,target,test,system,setting,inhibition
CCOC(=O)c1cn[nH]c1S(=O)(=O)NCc1ccc(OC)c(OC)c1,USP51,"enzyme activity, inhibitor",,1 µM,0%
O=C(O)[C@H]1O[C@@H](Oc2ccc([N+](=O)[O-])cc2)[C@H](O)[C@@H](O)[C@H]1O,Adhesin FmlH lectin domain,"binding to desialylated mucin, ELISA competition",UPEC UTI89,100 µM,-2.4 ± 5.2%
CC(C)Cc1ccc(-c2nn(-c3ccc(S(C)(=O)=O)cc3)cc2C=NN=c2[nH]c(-c3ccc(Br)cc3)cs2)cc1,PTGS1,enzyme activity,,0.01 µM,3.44%
NC(=O)CC[C@H](N)C(=O)N[C@@H](CC(N)=O)C(=O)N[C@@H](CC(=O)O)C(=O)N[C@@H](Cc1ccccc1)C(=O)O,"Angiotensin-converting enzyme (ACE, Homo sapiens, UniProt P12821)","enzyme activity, inhibitor",,1.4 mM,77%
N#Cc1ccccc1O[C@H]1O[C@H](CO)[C@H](O)[C@H](O)[C@H]1O,Adhesin FmlH lectin domain,"binding to desialylated mucin, ELISA competition",UPEC UTI89,100 µM,17.8 ± 6.3%
C[Si](C)(C)C[C@@H](CN)CC(=O)O,"B1 bradykinin receptor (BDKRB1, Homo sapiens, UniProt P46663)","ligand displacement, radioligand",,75 µM,17%
Cn1c(=O)c(SCC(=O)NCCN2CCC(Cc3ccccc3)CC2)nc2ccccc21,"D(2) dopamine receptor (DRD2, Homo sapiens, UniProt P14416)","enzyme activity, inhibitor",,10 µM,52.2%
O=C1c2sc(-c3ccc(N4CCC(F)C4)nc3F)nc2CCN1c1cccnc1 (stereo not shown),"Glucagon receptor (GCGR, Homo sapiens, UniProt P47871)","ligand displacement, radioligand",,1 µM,2%
C[C@H](NC(=O)[C@H](CC(=O)NCC(C)(C)C)NC(=O)CCc1ccccc1)C(=O)NCc1ccccc1Cl,CAPN1,"enzyme activity, inhibitor",,100 µM,7%
CN(C)C/C=C/C(=O)Nc1ccc2nc(NCCCCCN(C)C)nc(NCCCCCCN(C)C)c2c1,"Histone-lysine N-methyltransferase EZH2 (EZH2, Homo sapiens, UniProt Q15910)","enzyme activity, inhibitor, radiometric",,10 µM,52%
CS(=O)(=O)c1ccc(-n2cc(C=NN=c3[nH]c(-c4ccc([N+](=O)[O-])cc4)cs3)c(-c3ccc([N+](=O)[O-])cc3)n2)cc1,PTGS1,enzyme activity,,1 µM,24.1%
Brc1ccccc1-c1nnc(CSc2nnnn2-c2ccccc2)o1,"Alpha-2B adrenergic receptor (ADRA2B, Homo sapiens, UniProt P18089)","ligand displacement, radioligand",,10 µM,2%
CCn1cc(C(=O)O)c(=O)c2c(N)c(F)c(NC3CCCCC3)cc21,"Serine/threonine-protein kinase VRK1 (VRK1, Homo sapiens, UniProt Q99986)",kinase activity,,"0.1 µM, added: ATP at Km",6.6%
O=C(N[C@@H](CCNC(=O)c1ccc([N+](=O)[O-])o1)c1nc2ccccc2[nH]1)c1ccc(-n2cnnc2)cc1,"Stimulator of interferon genes protein (STING1, Homo sapiens, UniProt Q86WV6, H232R)","reporter gene, inhibitor, Lucia reporter",THP1-Dual,"concentration not given, wild-type STING, added: diABZI",inactive
Nc1ccc(O[C@@H]2O[C@H](CO)[C@H](O)[C@H](O)[C@H]2O)cc1,Adhesin FmlH lectin domain,"binding to desialylated mucin, ELISA competition",UPEC UTI89,"10 µM, added: desialylated bovine submaxillary mucin",9.8 ± 3.9%
Cn1ccc2cc(-n3c(=O)[nH]c4sc5c(c4c3=O)CCCC5)ccc21,"Prostaglandin E2 receptor EP4 subtype (PTGER4, Homo sapiens, UniProt P35408)",cell-free assay,,10 µM,17%
O=C1c2sc(-c3ccc(N4CCC(CO)CC4)nc3F)nc2CCN1c1cccnc1,"Alpha-2C adrenergic receptor (ADRA2C, Homo sapiens, UniProt P18825)","ligand displacement, radioligand",,1 µM,-1%
Cc1ccc(-c2nn(-c3ccc(S(C)(=O)=O)cc3)cc2/C=N/N=C2/NC(=O)CS2)cc1,"Epidermal growth factor receptor (EGFR, Homo sapiens, UniProt P00533, L858R)","kinase activity, inhibitor",,100 µM,94.7%
Cc1ccc(CNC(=O)C(CCc2ccccc2)NC(=O)C(NC(=O)Cc2cccc(Oc3ccccc3)c2)C(C)O)cc1 (stereo not shown),CAPN1,"enzyme activity, inhibitor",,100 µM,29%
Cc1noc(-c2ccc(O)cc2O)c1-c1ccc(Cl)cc1,USP51,"enzyme activity, inhibitor",,1 µM,11.9 ± 2%
C[Si]1(C[C@H](CN)CC(=O)O)CCCC1,"High affinity choline transporter 1 (Rattus norvegicus, UniProt Q9JMD7)","ligand displacement, radioligand",,70 µM,-17%
CCC(=O)N(C)c1ccc(Cl)c(Cl)c1,HTR5A,"ligand displacement, radioligand",,10 µM,< 10%
CC(C)NC(=O)[C@H](CCc1ccccc1)NC(=O)[C@H](CC(=O)NCC(C)(C)C)NC(=O)CCc1ccccc1,"Plasminogen (PLG, Homo sapiens, UniProt P00747)","enzyme activity, inhibitor",,100 µM,-18%
CCn1cc(-c2cccc(C(F)(F)F)c2)c2sc(C(=N)NC3CCS(=O)(=O)CC3)cc2c1=O,"Bromodomain-containing protein 3, BD2 (BRD3, Homo sapiens, UniProt Q15059)",,,1 µM,-5.06%
CCOc1cc(C(=O)Nc2ccc3sc(C)nc3c2)cc(OCC)c1OCC,USP51,"enzyme activity, inhibitor",,1 µM,13 ± 2%
Cc1nc2c(F)cc(-c3nc(Nc4ccc(CNC(=O)CCCCCCC(=O)NO)cc4)ncc3F)cc2n1C(C)C,"Phosphatidylinositol 4,5-bisphosphate 3-kinase catalytic subunit delta isoform, with p85 alpha (Pik3cd, Mus musculus, UniProt O35904)",enzyme activity,,"1 µM, p110δ/p85α)(m mouse",45%
"CC(=O)C12NC(C)(C)CC1(C)C(=O)C1=C2c2c(c3c4n2C(C)(C)CC2=C4C4(CC(C)(C)NC(C)(C4)C2=O)CC3(C)C)C(=O)C(C)(C)N1 (single isomer, unassigned; (-))","Voltage-dependent T-type calcium channel subunit alpha-1H (CACNA1H, Homo sapiens, UniProt O95180)","ion current, antagonist, whole-cell patch clamp",HEK293T,10 µM,2.77 ± 0.05%
Cc1c(C)c2ccc(O[C@@H]3O[C@H](CO)[C@H](O)[C@H](O)[C@H]3O)cc2oc1=O,Adhesin FmlH lectin domain,"binding to desialylated mucin, ELISA competition",UPEC UTI89,"10 µM, added: desialylated bovine submaxillary mucin",19.8 ± 3.8%
CO[C@@H](C)c1c(NC(=O)Nc2cnc(-n3nccn3)c(C(F)(F)F)c2)cnc2sc(C)nc12,HTR5A,"ligand displacement, radioligand",,10 µM,-5.9%
CS(=O)(=O)c1ccc(-n2cc(C=NN=c3[nH]c(-c4ccc([N+](=O)[O-])cc4)cs3)c(-c3ccc(Br)cc3)n2)cc1,PTGS1,enzyme activity,,10 µM,65.8%
CCOc1cc(C(=O)Nc2ccc3c(c2)N(C(=O)c2ccccc2)CCC3)cc(OCC)c1OCC,USP51,"enzyme activity, inhibitor",,1 µM,3.9 ± 3.8%
O=C(O)c1cccc(-c2ccccc2O[C@@H]2O[C@H](CO)[C@H](O)[C@H](O)[C@H]2O)c1,Adhesin FmlH lectin domain,"binding to desialylated bovine submaxillary mucin, inhibitor, ELISA competition",UPEC UTI89,1 µM,22.9 ± 5.1%
c1ccc(OC[C@H]2CN(CCN3CCc4ccccc43)CCO2)nc1,HTR5A,radioligand binding,,"concentration not given, added: [3H]LSD",24.4%
Cc1ccc(O[C@@H]2O[C@H](CO)[C@H](O)[C@H](O)[C@H]2O)cc1,Adhesin FmlH lectin domain,"binding to desialylated mucin, ELISA competition",UPEC UTI89,100 µM,85.8 ± 0.7%
Oc1cc2c(cc1O)C(c1ccccc1)NCC2 (stereo not shown),"Alpha-glucosidase MAL12 (MAL12, Saccharomyces cerevisiae S288c, UniProt P53341)","enzyme activity, inhibitor",,"100 µM, DMSO solvent, added: pNPG substrate",7.67 ± 5.42%
COc1cc(C=C2SC(=NC(C)=O)NC2=O)cc(OC)c1OC(C)=O,USP51,"enzyme activity, inhibitor",,1 µM,23.6 ± 4.3%
CS(=O)(=O)c1ccc(-n2cc(C=NN=c3[nH]c(-c4ccc(Br)cc4)cs3)c(-c3ccc(Br)cc3)n2)cc1,PTGS1,enzyme activity,,100 µM,92.1%

# For quick reference, copied from above:
SMILES,target,test,system,setting,inhibition
O=C1c2sc(-c3ccc(N4CCC(CO)CC4)nc3F)nc2CCN1c1cccnc1,"Alpha-2C adrenergic receptor (ADRA2C, Homo sapiens, UniProt P18825)","ligand displacement, radioligand",,1 µM,-1%
O=C(O)[C@H]1O[C@@H](Oc2ccc([N+](=O)[O-])cc2)[C@H](O)[C@@H](O)[C@H]1O,Adhesin FmlH lectin domain,"binding to desialylated mucin, ELISA competition",UPEC UTI89,100 µM,-2.4 ± 5.2%
